Measured values pooled from the literature.
Each line is one published result; not all experiments were run side by side. ± marks the error that the study gave.
B1: bglA S39T (Acetivibrio thermocellus, UniProt P26208); chain MSKITFPKDFIWGSATAAYQIEGAYNEDGKGESIWDRFTHTPGNIADGHTGDVACDHYHRYEEDIKIMKEIGIKSYRFSISWPRIFPEGTGKLNQKGLDFYKRLTNLLLENGIMPAITLYHWDLPQKLQDKGGWKNRDTTDYFTEYSEVIFKNLGDIVPIWFTHNEPGVVSLLGHFLGIHAPGIKDLRTSLEVSHNLLLSHGKAVKLFREMNIDAQIGIALNLSYHYPASEKAEDIEAAELSFSLAGRWYLDPVLKGRYPENALKLYKKKGIELSFPEDDLKLISQPIDFIAFNNYSSEFIKYDPSSESGFSPANSILEKFEKTDMGWIIYPEGLYDLLMLLDRDYGKPNIVISENGAAFKDEIGSNGKIEDTKRIQYLKDYLTQAHRAIQDGVNLKAYYLWSLLDNFEWAYGYNKRFGIVHVNFDTLERKIKDSGYWYKEVIKNNGF
B2: Urtica dioica agglutinin; sequence looked up; chain QRCGSQGGGGTCPALWCCSIWGWCGDSEPYCGRTCENKCWSGERSDHRCGAAVGNPPCGQDRCCSVHGWCGGGNDYCSGSKCQYRCSSSVRGPRVALSGNSTANSIGNVVVTEPLFDQMFSHRKDCPSQGFYSYHSFLVAAESFPAFGTIGDVATRKREVAAFLAHISQATSGERSDVENPHAWGLCHINTTTVTENDFCTSSDWPCAAGKKYSPRGPIQLTHNFNYGLAGQAIGEDLIQNPDLVEKDPIISFKTALWFWMSQHDNKPSCHDIVLNANSAANRIPNKGVIGNIISRAFGHDDFAVRSSSIGFYKRYCDMLGVSYGHDLKYWFDNTPSSEFQRIQMRVAA
B3: enzyme (Enterococcus faecalis, UniProt Q836M4); chain MEIHFEKVTSDNRKAVENLQVFAEQQAFIESMAENLKESDQFPEWESAGIYDGNQLIGYAMYGRWQDGRVWLDRFLIDQRFQGQGYGKAACRLLMLKLIEKYQTNKLYLSVYDTNSSAIRLYQQLGFVFNGELDTNGERVMEWTHQNK
B4: enzyme Y1159A (Homo sapiens, UniProt Q9NTI2); chain MLNGAGLDKALKMSLPRRSRIRSSVGPVRSSLGYKKAEDEMSRATSVGDQLEAPARTIYLNQPHLNKFRDNQISTAKYSVLTFLPRFLYEQIRRAANAFFLFIALLQQIPDVSPTGRYTTLVPLIIILTIAGIKEIVEDFKRHKADNAVNKKKTIVLRNGMWHTIMWKEVAVGDIVKVVNGQYLPADVVLLSSSEPQAMCYVETANLDGETNLKIRQGLSHTADMQTREVLMKLSGTIECEGPNRHLYDFTGNLNLDGKSLVALGPDQILLRGTQLRNTQWVFGIVVYTGHDTKLMQNSTKAPLKRSNVEKVTNVQILVLFGILLVMALVSSAGALYWNRSHGEKNWYIKKMDTTSDNFGYNLLTFIILYNNLIPISLLVTLEVVKYTQALFINWDTDMYYIGNDTPAMARTSNLNEELGQVKYLFSDKTGTLTCNIMNFKKCSIAGVTYGHFPELAREPSSDDFCRMPPPCSDSCDFDDPRLLKNIEDRHPTAPCIQEFLTLLAVCHTVVPEKDGDNIIYQASSPDEAALVKGAKKLGFVFTARTPFSVIIEAMGQEQTFGILNVLEFSSDRKRMSVIVRTPSGRLRLYCKGADNVIFERLSKDSKYMEETLCHLEYFATEGLRTLCVAYADLSENEYEEWLKVYQEASTILKDRAQRLEECYEIIEKNLLLLGATAIEDRLQAGVPETIATLLKAEIKIWVLTGDKQETAINIGYSCRLVSQNMALILLKEDSLDATRAAITQHCTDLGNLLGKENDVALIIDGHTLKYALSFEVRRSFLDLALSCKAVICCRVSPLQKSEIVDVVKKRVKAITLAIGDGANDVGMIQTAHVGVGISGNEGMQATNNSDYAIAQFSYLEKLLLVHGAWSYNRVTKCILYCFYKNVVLYIIELWFAFVNGFSGQILFERWCIGLYNVIFTALPPFTLGIFERSCTQESMLRFPQLYKITQNGEGFNTKVFWGHCINALVHSLILFWFPMKALEHDTVLTSGHATDYLFVGNIVYTYVVVTVCLKAGLETTAWTKFSHLAVWGSMLTWLVFFGIYSTIWPTIPIAPDMRGQATMVLSSAHFWLGLFLVPTACLIEDVAWRAAKHTCKKTLLEEVQELETKSRVLGKAVLRDSNGKRLNERDRLIKRLGRKTPPTLFRGSSLQQGVPHGAAFSQEEHGAVSQEEVIRAYDTTKKKSRKK
B5: Streptomyces antibioticus OleD glycosyltransferase; sequence looked up; chain MTTQTTPAHIAMFSIAAHGHVNPSLEVIRELVARGHRVTYAIPPVFADKVAATGPRPVLYHSTLPGPDADPEAWGSTLLDNRRTFLNDAIQALPQLADAYADDIPDLVLHDITSYPARVLARRWGVPAVSLSPNLVAWKGYEEEVAEPMWREPRQTERGRAYYARFEAWLKENGITEHPDTFASHPPRSLVLIPKALQPHADRVDEDVYTFVGACQGDRAEEGGWQRPAGAEKVVLVSLGSAFTKQPAFYRECVRAFGNLPGWHLVLQIGRKVTPAELGELPDNVEVHDWVPQLAILRQADLFVTHAGAGGSQEGLATATPMIAVPQAVDQFGNADMLQGLGVARKLATEEATADLLRETALALVDDPEVARRLRRIQAEMAQEGGTRRAADLIEAELPARHERQEPVGDRPNVGDRPAGVRSDRQRSAL
Chain of UniProt Q944I4 (whole entry, looked up): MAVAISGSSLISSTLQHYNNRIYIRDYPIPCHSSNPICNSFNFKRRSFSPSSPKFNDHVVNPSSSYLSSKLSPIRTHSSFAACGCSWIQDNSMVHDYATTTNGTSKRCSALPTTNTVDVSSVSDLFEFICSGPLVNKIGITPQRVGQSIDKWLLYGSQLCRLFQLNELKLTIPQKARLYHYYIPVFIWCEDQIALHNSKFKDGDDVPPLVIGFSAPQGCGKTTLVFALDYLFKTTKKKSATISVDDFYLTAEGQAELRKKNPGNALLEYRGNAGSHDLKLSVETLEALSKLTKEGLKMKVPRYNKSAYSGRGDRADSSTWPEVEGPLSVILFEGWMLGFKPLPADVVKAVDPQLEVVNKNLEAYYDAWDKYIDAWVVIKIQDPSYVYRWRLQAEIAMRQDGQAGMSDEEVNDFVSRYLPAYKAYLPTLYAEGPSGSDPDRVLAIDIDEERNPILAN

| Substance | target or system | test | system | conditions | how to read | quantity | result |
| --- | --- | --- | --- | --- | --- | --- | --- |
| enzyme (Bos taurus, UniProt C7EXK4) | CCCCCCCC/C=C\CCCCCCCC(=O)OC[C@H](COP(=O)(O)OC[C@H](N)C(=O)O)OC(=O)CCCCCCC/C=C\CCCCCCCC | steady-state kinetics | – | pH 7.5, 37 °C, together with: ATP 5 mM | – | K0.5 | 20.5 µM |
| Leu-enkephalin | – | LC-MS3 | rat dialysate with 5% acetic acid | -80 °C | – | storage stability time | ~5 days |
| glucagon | – | isotope dilution | human, non-diabetic | intravenous infusion, 0.12 ng/kg/min, 160 to 180 min | – | leg extraction | 24.1 ± 2.2% |
| HVLVMSATRR | – | – | peptide, C57BL/6J mice, male, blood | subcutaneous osmotic pump, 3 mg/kg/day peptide basis, 8 weeks | – | basophils | 0% |
| B1 (bglA S39T) | O=[N+]([O-])c1ccc(O[C@@H]2O[C@H](CO)[C@@H](O)[C@H](O)[C@H]2O)cc1 | steady-state kinetics | – | pH 5.5, 60 °C | – | kcat/Km | 32400 ± 2800 M⁻¹ s⁻¹ |
| B2 (Urtica dioica agglutinin) | CRFK | MTS | – | – | – | CC50 | > 100 µg/mL |
| amyloid β-peptide (1–28) | – | substrate, LC-MS | phosphate buffer | 10 µM, 24 h, pH 7.4, 25 °C, together with: MINP(β1–14) 1 equiv | – | remaining substrate | < 0.1% |
| B3 (enzyme) | NCCCCNCCCN | steady-state kinetics | – | pH 8, 37 °C, together with: AcCoA 1 mM | – | K0.5 | 424 µM |
| insulin human | – | measured: HDAC2 mRNA | EcoHIV-infected mouse, brain | i.p., dose not given | baseline: PBS | fold change | 1.26 |
| B4 (enzyme Y1159A) | CCCCCCCC/C=C\CCCCCCCC(=O)OC[C@H](COP(=O)(O)OC[C@H](N)C(=O)O)OC(=O)CCCCCCC/C=C\CCCCCCCC | steady-state kinetics | – | pH 7.5, 37 °C, together with: ATP 5 mM | – | K0.5 | 24.5 µM |
| heparin sodium | – | – | healthy Chinese adult volunteers | continuous intravenous infusion, 8 IU/kg/h, 5 days | – | positive urine occult blood | 0% |
| CRQLRKGKFFSEGGSGGTSFEQFWAWLWP | – | ICP-MS | peptide, BALB/c nude mice | – | – | half-life | 9.6 h |
| nonaarginine | PorA peptide pore | peptide binding, planar bilayer single-channel recording | – | pH 7.4, -30 mV, cis side, 150 mM KCl | – | Kd | 2.78 ± 0.3 µM |
| aspterric acid | – | hypocotyl length | Arabidopsis thaliana Col-0 seeds | 12.5 µg/mL, seed germination | baseline: water control | inhibition | 95.2% |
| B5 | – | glycosylation | Tris-HCl buffer | 4 h, pH 9.0, 35 °C, together with: NOS substrate 2 mM, UDP-glucose 5 mM | – | apparent kcat | 0.01 ± 0.01 s⁻¹ |
| enzyme (Arabidopsis thaliana, UniProt Q944I4) | Nc1ncnc2c1ncn2[C@@H]1O[C@H](COP(=O)(O)OP(=O)(O)OP(=O)(O)O)[C@@H](O)[C@H]1O | steady-state kinetics | – | pH 7.8, 30 °C | – | Vmax | 132 µmol/min/mg |
| hexaarginine | PorA peptide pore | peptide binding, planar bilayer single-channel recording | – | pH 7.4, +5 mV, trans side, 150 mM KCl | – | Kd | 3.26 ± 0.3 µM |
| Polymyxin B | – | – | mouse | intraperitoneal, 20 mg/kg single dose, day 3 | – | survival | 100% |

A few entries again:
| Substance | target or system | test | system | conditions | how to read | quantity | result |
| --- | --- | --- | --- | --- | --- | --- | --- |
| B2 (Urtica dioica agglutinin) | CRFK | MTS | – | – | – | CC50 | > 100 µg/mL |
| HVLVMSATRR | – | – | peptide, C57BL/6J mice, male, blood | subcutaneous osmotic pump, 3 mg/kg/day peptide basis, 8 weeks | – | basophils | 0% |
| Polymyxin B | – | – | mouse | intraperitoneal, 20 mg/kg single dose, day 3 | – | survival | 100% |
